# Measured values collected from several papers.
# Protocols differ between the studies behind these lines.
# Organism: Mycobacterium tuberculosis
SMILES,effect on,technique,strain,medium,time,setting,MIC
Cc1c(Cc2ccc(C(C)(C)C)cc2)c(=O)n2c([nH]c3ccccc32)c1C#N,microbial growth,resazurin,H37RV,,,,0.5 µg/mL
O=C1NN=C(N=Cc2ccccc2)C1=NNn1c(-c2ccccc2)nc2ccccc2c1=O,microbial growth,resazurin,H37RV,,,,14.3 µM
N#Cc1cc2cccnc2nc1N1CCN(C(=O)CNc2ccc(F)c(F)c2)CC1,,microplate Alamar Blue,H37Rv,,,,> 122 µM
Cc1c(Cc2ccc(O)cc2)c(=O)n2c([nH]c3ccccc32)c1C#N,microbial growth,resazurin,H37RV,,,,> 128 µg/mL
Cc1c2c([nH]c(=O)c1CNC(=O)c1ccc([N+](=O)[O-])o1)CCCC2,microbial growth,resazurin,H37RV,,,,> 50 µg/mL
O=C1C=C(O)C(=O)c2ccccc21,,resazurin microplate,H37Rv,,7 days + 24 h,,> 147 µM
Cc1cc2c(cc1Cl)C=CC1(CCc3c(nnn3-c3ccc(Cl)cc3)C1)O2 (centres unmarked),microbial growth,resazurin,H37RV,,7 days,,3.12 µg/mL
CC(C)c1ccc(-c2ccnc(CN3CC[Si](C)(C)CC3)c2)cc1,microbial growth,resazurin,H37RV,,,,0.5 to 1 µg/mL
COc1cc(Cc2ccc(C(=O)NCc3c4c(c(C)[nH]c3=O)CCCC4)cc2)cc(OC)c1,microbial growth,resazurin,H37RV,,,,15 µg/mL
O=c1c2ccccc2[se]n1-c1ccccc1,microbial growth,resazurin,H37RV,,,,12.5 µg/mL
COc1ccc(-n2nnc3c2CCC2(C=Cc4cc(Cl)c(C)cc4O2)C3)cc1 (centres unmarked),microbial growth,resazurin,H37RV,,7 days,,6.25 µg/mL
O=C(NCc1ccccc1)c1cc2c(F)cc(F)cc2[nH]1,,microplate alamarBlue,H37Rv,,,,> 32 µg/mL
O=C(OCc1ccccc1)c1coc(-c2ccncc2)n1,,,H37Rv,,168 h,,1 to 4 µM
CCc1nc2ccc(Cl)cn2c1C(=O)NCc1ccc(S(F)(F)(F)(F)F)cc1,microbial growth,resazurin,H37RV,,,,0.01 µM
COc1ccc(-n2nnc3c2CCC2(C=Cc4cc(Cl)ccc4O2)C3)cc1 (centres unmarked),microbial growth,resazurin,H37RV,,7 days,,1.56 µg/mL
O=C(c1cc2c(F)cc(F)cc2[nH]1)N1CCN(C(=O)C23CC4CC(CC(C4)C2)C3)CC1,,microplate alamarBlue,H37Rv,,,,> 32 µg/mL
O=c1c2ccccc2[se]n1Cc1ccccc1,microbial growth,resazurin,H37RV,,,,25 µg/mL
COc1cc(OC)cc(-c2ccc(C(=O)NCc3c(C)cc(-c4ccccc4)[nH]c3=O)cc2)c1,microbial growth,resazurin,H37RV,,,,> 20 µg/mL
N#Cc1cc2cccnc2nc1N1CCN(CC(=O)Nc2ccccc2)CC1,,microplate Alamar Blue,H37Rv,,,,33.6 µM
O=c1c2ccccc2[se]n1CC1CCCCC1,microbial growth,resazurin,H37RV,,,,≥ 50 µg/mL
CC[C@@H](CO)NCCN[C@@H](CC)CO,microbial growth,resazurin,H37RV,,,,7.6 µM
Cc1c2c([nH]c(=O)c1CNC(=O)c1ccc(C(F)(F)F)nc1Cl)CCCC2,microbial growth,resazurin,H37RV,,,,26.3 µg/mL
Cc1c(Cc2cccc(OC(F)(F)F)c2)c(=O)n2c([nH]c3ccccc32)c1C#N,microbial growth,resazurin,H37RV,,,,64 µg/mL
N#Cc1cc2cccnc2nc1N1CCN(C(=O)CNc2cccc(Cl)c2)CC1,,microplate Alamar Blue,H37Rv,,,,123 µM
COc1ccc(Cn2[se]c3ccccc3c2=O)cc1,microbial growth,resazurin,H37RV,,,,25 µg/mL
N#Cc1cc2cccnc2nc1N1CCN(C(=O)CCl)CC1,,microplate Alamar Blue,H37Rv,,,,79.2 µM
COc1cccc(Nc2ccc([N+](=O)[O-])c3nonc23)c1,microbial growth,,H37RV,,,,8 µM
Cc1ccc2c(c1)C=CC1(CCc3c(nnn3Cc3ccccc3)C1)O2 (centres unmarked),,MABA,H37Rv,,7 days,,> 25 µg/mL
Cc1[nH]c(=O)c(CNC(=O)c2cn[nH]c2)c2c1CCCC2,microbial growth,resazurin,H37RV,,,,14 µg/mL
O=C1c2ccccc2C(=O)c2c1oc(NC1CCCCC1)c2-c1ccc([N+](=O)[O-])o1,,resazurin microplate,H37Rv,,7 days + 24 h,,20 µM
Cc1c2c([nH]c(=O)c1CNC(=O)c1ccc(-c3ccccc3)o1)CCCC2,microbial growth,resazurin,H37RV,,,,> 50 µg/mL
N#Cc1cc2cccnc2nc1N1CCN(CC(=O)Nc2cccc([N+](=O)[O-])c2)CC1,,microplate Alamar Blue,H37Rv,,,,29.9 µM
Clc1ccc2c(c1)C=CC1(CCc3c(nnn3-c3ccccc3)C1)O2 (centres unmarked),microbial growth,resazurin,H37RV,,7 days,,6.25 µg/mL
O=[N+]([O-])c1cn2c(n1)OC[C@@H](OCc1ccc(OC(F)(F)F)cc1)C2,,,drug-sensitive clinical strain 2,7H9 glucose glycerol BSA medium,,,> 5 µg/mL
N#Cc1cc2cccnc2nc1N1CCN(CC(=O)Nc2ccccc2F)CC1,,microplate Alamar Blue,H37Rv,,,,32 µM
Cc1c(Cc2cccnc2)c(=O)n2c([nH]c3ccccc32)c1C#N,microbial growth,resazurin,H37RV,,,,4 µg/mL
Cc1cc(=O)[nH]c2c1C(=O)c1c(CCCCCCC(C)C)cc(=O)[nH]c1C2=O,,Microplate Alamar Blue,H37Rv,,,replicating bacteria,0.04 µg/mL
CCCCNc1oc2c(c1-c1cc(OC)c(OC)c(OC)c1)C(=O)c1ccccc1C2=O,,resazurin microplate,H37Rv,,7 days + 24 h,,147 µM
COc1ccc2[nH]c(C(=O)NC(C)C34CC5CC(CC(C5)C3)C4)cc2c1 (centres unmarked),,microplate alamarBlue,H37Rv,,,,2 µg/mL
NNC(=O)c1ccncc1,microbial growth,resazurin,H37RV,,,,0.04 µg/mL
COc1cc(-c2c(NC3CCCCC3)oc3c2C(=O)c2ccccc2C3=O)cc(OC)c1OC,,resazurin microplate,H37Rv,,7 days + 24 h,,> 147 µM
N#Cc1cc2cccnc2nc1N1CCN(C(=O)CNc2ccc(Cl)cc2Cl)CC1,,microplate Alamar Blue,H37Rv,,,,113 µM
Cc1[nH]c(=O)c(CNC(=O)Cc2ccc(C(F)(F)F)cc2)c2c1CCCC2,microbial growth,resazurin,H37RV,,,,20 µg/mL
O=C(NC12CC3CC(CC(C3)C1)C2)c1ccc2ccccc2c1,microbial growth,resazurin,H37RV,,,,≤ 4 µg/mL
COc1cccc(-c2ccc(C(=O)NCc3c4c(c(C)[nH]c3=O)CCCC4)cc2)c1,microbial growth,resazurin,H37RV,,,,> 25 µg/mL
CC(C)(C)Nc1oc2c(c1-c1ccc(Cl)cc1)C(=O)c1ccccc1C2=O,,resazurin microplate,H37Rv,,7 days + 24 h,,> 147 µM
N#Cc1cc2cccnc2nc1N1CCN(C(=O)CNc2cccc(C(F)(F)F)c2)CC1,,microplate Alamar Blue,H37Rv,,,,56.8 µM

# Some of these lines once more:
SMILES,effect on,technique,strain,medium,time,setting,MIC
Cc1cc(=O)[nH]c2c1C(=O)c1c(CCCCCCC(C)C)cc(=O)[nH]c1C2=O,,Microplate Alamar Blue,H37Rv,,,replicating bacteria,0.04 µg/mL
CCCCNc1oc2c(c1-c1cc(OC)c(OC)c(OC)c1)C(=O)c1ccccc1C2=O,,resazurin microplate,H37Rv,,7 days + 24 h,,147 µM
COc1ccc2[nH]c(C(=O)NC(C)C34CC5CC(CC(C5)C3)C4)cc2c1 (centres unmarked),,microplate alamarBlue,H37Rv,,,,2 µg/mL
NNC(=O)c1ccncc1,microbial growth,resazurin,H37RV,,,,0.04 µg/mL
COc1cc(-c2c(NC3CCCCC3)oc3c2C(=O)c2ccccc2C3=O)cc(OC)c1OC,,resazurin microplate,H37Rv,,7 days + 24 h,,> 147 µM
